{"data": "Measured values pooled from the literature", "note": "Each line is one published result; not all experiments were run side by side. “And” joins repeats or separate records; there may be more than shown. ± gives the spread as reported."}
{"Substance": "aspterric acid", "test system": "Arabidopsis thaliana Col-0 seeds", "conditions": "25 µg/mL, seed germination", "endpoint": "root length", "result": "0.01 cm"}
{"Substance": "fengycin", "assay": "calcein leakage", "test system": "DOPC/DOPG/CHOL liposomes", "conditions": "concentration not given, together with: 20 wt% PEG-8000", "endpoint": "maximum fusion", "result": "13 ± 1%"}
{"Substance": "CLCKKGKCGLCGK", "assay": "absorbance at 734 nm", "test system": "peptide", "conditions": "1 mg/mL, 5 min, room temperature", "endpoint": "ABTS radical scavenging", "result": "0.928 fraction (0-1)"}
{"Substance": "EALYLVCGE", "assay": "tetramer binding, flow cytometry", "test system": "peptide, tetramer-binding CD4+ thymocytes, female NOD.Ins2-/- mice, 6 weeks, thymus", "conditions": "dose not given", "endpoint": "FOXP3+ Treg cells", "result": "4.14% and 3.03% and 20.3% and 15.4% and 25% and 39%"}
{"Substance": "GWTLNSAGYLLGPHAVDNHRSFNDKHGFT-NH2 (C-amide)", "assay": "RT-qPCR, measured: Ccl3", "test system": "peptide, mouse, DSS-induced colitis, colon", "conditions": "ip, 3 µM, 3% DSS, unit not given", "scale": "relative to: Gapdh", "endpoint": "mRNA level", "result": "1.39 and 0.981 and 1.34 and 0.22 and 0.648"}
{"Substance": "Met-enkephalin-Arg-Phe", "assay": "antinociception, tail-flick", "test system": "male ICR-CD1 mice", "conditions": "intracerebroventricular, 50 µg/animal, 30 min", "endpoint": "maximum possible effect", "result": "1.08% and 27.5% and 14.7% and -9.46% and 6.73% and 9.58% and 19.8% and 5.15%"}
{"Substance": "insulin human", "assay": "measured: MAPK14 mRNA", "test system": "uninfected mouse, brain", "conditions": "i.p., dose not given", "scale": "relative to: PBS", "endpoint": "fold change", "result": 1.21}
{"Substance": "CRQLRKGKFFSEGGSGGTSFEQFWAWLWP", "test system": "peptide, mice, 786-O PAK4 knock-out xenograft", "conditions": "5.0 mg/kg", "endpoint": "tumour growth", "result": "no effect"}
{"Substance": "GWTLNSAGYLLGPRRIDHLLMIKEMPIARGREEAPGA / YAVDNHRSFNDKHGFT-NH2 (C-amide)", "assay": "RT-qPCR, measured: Il1a", "test system": "mouse, DSS-induced colitis, colon", "conditions": "ip, 3 µM, 3% DSS, unit not given", "scale": "relative to: Gapdh", "endpoint": "mRNA level", "result": "0.667 and 0.296 and 0.311 and 1.02 and 0.229"}
{"Substance": "LLGKKLLKGAKGG", "assay": "absorbance at 734 nm", "test system": "peptide", "conditions": "1 mg/mL, 5 min, room temperature", "endpoint": "ABTS radical scavenging", "result": "0.00847 fraction (0-1)"}
{"Substance": "polymyxin B", "assay": "calcein leakage", "test system": "DOPC/DOPG/CHOL liposomes", "conditions": "concentration not given, together with: 20 wt% PEG-8000", "endpoint": "leakage time constant", "result": "1 ± 1 min"}
{"Substance": "KLGKGGGLLKKLK", "assay": "absorbance at 734 nm", "test system": "peptide", "conditions": "1 mg/mL, 5 min, room temperature", "endpoint": "ABTS radical scavenging", "result": "0.0277 fraction (0-1)"}
{"Substance": "DAMGO", "assay": "PKA-RII phosphorylation, inhibitor, high-content microscopy", "test system": "DRG neurons, rat, spinal cord injury", "conditions": "together with: forskolin 3 µM", "endpoint": "IC50", "result": "260 nM and 350 nM and 290 nM"}
{"Substance": "mycosubtilin", "assay": "calcein leakage", "test system": "DOPC/DOPG/CHOL liposomes", "conditions": "concentration not given, together with: 40 mM CaCl2", "endpoint": "leakage time constant", "result": "7 ± 4 min"}
{"Substance": "CLCGGKGKKLGKG", "assay": "absorbance at 734 nm", "test system": "peptide", "conditions": "1 mg/mL, 5 min, room temperature", "endpoint": "ABTS radical scavenging", "result": "0.923 fraction (0-1)"}
{"note": "Repeated from above:"}
{"Substance": "polymyxin B", "assay": "calcein leakage", "test system": "DOPC/DOPG/CHOL liposomes", "conditions": "concentration not given, together with: 20 wt% PEG-8000", "endpoint": "leakage time constant", "result": "1 ± 1 min"}
{"Substance": "KLGKGGGLLKKLK", "assay": "absorbance at 734 nm", "test system": "peptide", "conditions": "1 mg/mL, 5 min, room temperature", "endpoint": "ABTS radical scavenging", "result": "0.0277 fraction (0-1)"}
